Results gathered from unrelated publications.
± marks the error that the study gave.
CYP2C9: Cytochrome P450 2C9 (CYP2C9, Homo sapiens, UniProt P11712)
UniProt P11712, sequence (whole entry, looked up): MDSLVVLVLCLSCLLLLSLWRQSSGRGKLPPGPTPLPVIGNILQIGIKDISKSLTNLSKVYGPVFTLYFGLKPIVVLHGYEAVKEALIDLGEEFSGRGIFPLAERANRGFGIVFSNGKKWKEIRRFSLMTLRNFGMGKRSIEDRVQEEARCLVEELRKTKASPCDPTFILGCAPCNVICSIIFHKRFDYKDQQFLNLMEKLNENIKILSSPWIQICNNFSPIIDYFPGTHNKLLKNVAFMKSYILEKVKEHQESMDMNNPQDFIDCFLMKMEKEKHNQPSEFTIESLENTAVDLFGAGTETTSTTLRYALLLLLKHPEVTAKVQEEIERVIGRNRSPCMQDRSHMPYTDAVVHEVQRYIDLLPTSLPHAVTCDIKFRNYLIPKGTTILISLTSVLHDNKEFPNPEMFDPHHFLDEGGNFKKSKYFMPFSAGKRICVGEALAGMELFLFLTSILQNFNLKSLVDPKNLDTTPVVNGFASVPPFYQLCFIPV
NR1I2: Nuclear receptor subfamily 1 group I member 2 (NR1I2, Homo sapiens, UniProt O75469)
UniProt O75469, sequence (whole entry, looked up): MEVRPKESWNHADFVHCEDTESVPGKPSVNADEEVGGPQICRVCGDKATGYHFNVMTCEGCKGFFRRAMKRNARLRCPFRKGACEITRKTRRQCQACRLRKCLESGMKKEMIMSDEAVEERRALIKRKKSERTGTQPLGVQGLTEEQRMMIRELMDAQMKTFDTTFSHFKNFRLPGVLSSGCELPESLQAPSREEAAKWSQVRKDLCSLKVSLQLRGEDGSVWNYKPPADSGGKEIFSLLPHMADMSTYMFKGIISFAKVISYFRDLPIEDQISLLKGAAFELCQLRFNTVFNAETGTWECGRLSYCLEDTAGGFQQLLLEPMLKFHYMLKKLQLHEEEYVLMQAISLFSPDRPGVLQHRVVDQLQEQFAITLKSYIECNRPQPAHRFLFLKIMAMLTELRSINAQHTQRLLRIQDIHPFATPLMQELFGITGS
UniProt Q05421, sequence (whole entry, looked up): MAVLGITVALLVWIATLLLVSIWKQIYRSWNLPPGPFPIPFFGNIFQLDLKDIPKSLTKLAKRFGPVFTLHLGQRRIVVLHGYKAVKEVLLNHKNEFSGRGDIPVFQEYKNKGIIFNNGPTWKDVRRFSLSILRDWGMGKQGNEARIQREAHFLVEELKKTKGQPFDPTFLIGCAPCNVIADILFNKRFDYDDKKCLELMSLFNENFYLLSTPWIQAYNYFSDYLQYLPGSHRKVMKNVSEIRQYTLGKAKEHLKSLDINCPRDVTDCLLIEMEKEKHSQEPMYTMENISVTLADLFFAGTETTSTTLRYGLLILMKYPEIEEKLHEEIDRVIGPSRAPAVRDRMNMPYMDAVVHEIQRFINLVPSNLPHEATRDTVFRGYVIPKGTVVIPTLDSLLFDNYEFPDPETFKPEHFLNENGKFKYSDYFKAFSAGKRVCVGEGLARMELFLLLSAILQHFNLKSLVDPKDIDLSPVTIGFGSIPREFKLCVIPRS
UniProt P11509, sequence (whole entry, looked up): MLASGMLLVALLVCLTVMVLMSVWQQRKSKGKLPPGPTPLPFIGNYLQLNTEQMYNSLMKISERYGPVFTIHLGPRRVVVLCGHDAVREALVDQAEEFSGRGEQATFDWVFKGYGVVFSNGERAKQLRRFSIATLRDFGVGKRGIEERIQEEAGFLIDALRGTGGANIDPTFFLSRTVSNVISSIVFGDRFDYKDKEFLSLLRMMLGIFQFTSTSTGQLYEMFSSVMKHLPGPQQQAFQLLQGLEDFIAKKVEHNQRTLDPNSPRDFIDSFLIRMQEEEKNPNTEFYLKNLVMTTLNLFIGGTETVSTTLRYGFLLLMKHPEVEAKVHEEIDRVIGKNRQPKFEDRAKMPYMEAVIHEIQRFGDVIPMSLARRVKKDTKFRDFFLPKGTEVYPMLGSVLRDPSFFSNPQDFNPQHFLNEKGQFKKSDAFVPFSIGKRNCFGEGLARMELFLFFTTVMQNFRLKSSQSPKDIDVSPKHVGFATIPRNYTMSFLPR
UniProt P08183, sequence (whole entry, looked up): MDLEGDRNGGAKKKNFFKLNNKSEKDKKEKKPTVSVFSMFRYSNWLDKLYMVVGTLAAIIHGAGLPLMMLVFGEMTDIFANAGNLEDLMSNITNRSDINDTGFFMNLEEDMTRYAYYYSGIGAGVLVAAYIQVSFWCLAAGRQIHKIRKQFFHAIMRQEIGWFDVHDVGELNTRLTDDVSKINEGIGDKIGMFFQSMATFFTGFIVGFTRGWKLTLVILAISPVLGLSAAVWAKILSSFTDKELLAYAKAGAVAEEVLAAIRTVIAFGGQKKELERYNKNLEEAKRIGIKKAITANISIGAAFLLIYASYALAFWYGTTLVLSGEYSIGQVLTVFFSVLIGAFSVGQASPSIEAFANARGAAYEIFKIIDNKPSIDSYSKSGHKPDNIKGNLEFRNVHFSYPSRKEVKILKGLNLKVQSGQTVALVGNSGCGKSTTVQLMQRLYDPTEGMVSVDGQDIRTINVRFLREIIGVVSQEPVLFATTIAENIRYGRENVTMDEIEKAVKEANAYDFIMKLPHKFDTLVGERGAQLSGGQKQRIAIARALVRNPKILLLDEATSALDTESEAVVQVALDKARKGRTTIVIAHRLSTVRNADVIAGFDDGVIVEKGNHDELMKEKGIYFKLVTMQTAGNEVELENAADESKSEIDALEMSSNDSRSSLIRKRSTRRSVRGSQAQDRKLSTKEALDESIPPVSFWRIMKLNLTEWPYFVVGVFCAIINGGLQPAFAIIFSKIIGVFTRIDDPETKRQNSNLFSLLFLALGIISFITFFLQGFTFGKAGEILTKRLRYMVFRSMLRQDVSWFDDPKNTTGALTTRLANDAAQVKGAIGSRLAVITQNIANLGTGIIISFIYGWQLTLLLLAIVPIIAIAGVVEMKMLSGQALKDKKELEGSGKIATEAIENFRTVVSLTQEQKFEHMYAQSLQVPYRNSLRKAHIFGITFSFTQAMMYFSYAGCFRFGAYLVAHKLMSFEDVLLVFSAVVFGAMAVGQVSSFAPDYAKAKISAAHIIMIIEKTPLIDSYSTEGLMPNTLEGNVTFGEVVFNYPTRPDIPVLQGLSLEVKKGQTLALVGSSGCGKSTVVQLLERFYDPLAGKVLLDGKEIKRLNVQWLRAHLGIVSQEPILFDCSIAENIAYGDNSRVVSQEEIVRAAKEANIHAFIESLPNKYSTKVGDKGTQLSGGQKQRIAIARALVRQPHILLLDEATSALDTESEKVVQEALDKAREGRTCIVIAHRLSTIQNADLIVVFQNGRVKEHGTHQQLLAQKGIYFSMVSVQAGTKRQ
UniProt Q16696, sequence (whole entry, looked up): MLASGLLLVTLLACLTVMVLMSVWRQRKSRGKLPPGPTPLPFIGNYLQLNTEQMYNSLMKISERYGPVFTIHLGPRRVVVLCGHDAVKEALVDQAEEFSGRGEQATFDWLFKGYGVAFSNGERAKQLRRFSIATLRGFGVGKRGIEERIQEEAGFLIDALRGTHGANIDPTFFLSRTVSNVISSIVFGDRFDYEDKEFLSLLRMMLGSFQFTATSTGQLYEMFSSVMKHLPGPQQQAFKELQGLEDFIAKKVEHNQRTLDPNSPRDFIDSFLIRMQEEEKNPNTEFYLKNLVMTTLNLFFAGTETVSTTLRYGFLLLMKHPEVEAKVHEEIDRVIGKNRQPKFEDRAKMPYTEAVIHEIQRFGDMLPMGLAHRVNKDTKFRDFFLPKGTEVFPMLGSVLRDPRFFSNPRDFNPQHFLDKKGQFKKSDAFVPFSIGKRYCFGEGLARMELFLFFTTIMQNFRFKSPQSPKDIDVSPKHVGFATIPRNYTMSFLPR
UniProt Q95LD9, sequence (whole entry, looked up): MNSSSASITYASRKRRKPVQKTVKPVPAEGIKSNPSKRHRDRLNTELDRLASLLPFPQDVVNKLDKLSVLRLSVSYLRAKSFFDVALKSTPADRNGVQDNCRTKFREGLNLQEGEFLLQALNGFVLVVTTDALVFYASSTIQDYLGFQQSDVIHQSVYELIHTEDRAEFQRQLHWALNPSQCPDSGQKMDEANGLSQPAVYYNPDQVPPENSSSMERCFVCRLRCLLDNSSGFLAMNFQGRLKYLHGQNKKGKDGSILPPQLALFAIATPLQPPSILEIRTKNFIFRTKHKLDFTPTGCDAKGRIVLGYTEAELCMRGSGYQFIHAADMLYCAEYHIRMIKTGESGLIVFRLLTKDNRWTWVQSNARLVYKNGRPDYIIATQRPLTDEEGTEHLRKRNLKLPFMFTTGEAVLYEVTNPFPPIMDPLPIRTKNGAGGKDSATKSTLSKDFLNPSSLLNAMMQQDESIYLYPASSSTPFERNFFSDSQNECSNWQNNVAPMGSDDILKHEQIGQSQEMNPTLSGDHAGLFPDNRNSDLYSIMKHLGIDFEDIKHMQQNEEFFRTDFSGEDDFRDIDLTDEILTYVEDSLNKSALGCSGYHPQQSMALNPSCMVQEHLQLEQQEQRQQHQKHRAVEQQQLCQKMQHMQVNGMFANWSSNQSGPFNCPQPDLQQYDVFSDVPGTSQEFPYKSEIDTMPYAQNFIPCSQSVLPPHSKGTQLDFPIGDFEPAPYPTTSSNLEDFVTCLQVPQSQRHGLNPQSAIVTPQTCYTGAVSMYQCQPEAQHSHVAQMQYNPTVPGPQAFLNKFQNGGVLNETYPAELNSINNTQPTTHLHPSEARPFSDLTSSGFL

C#CCOc1ccccc1-c1ccccc1  Kd (Cytochrome P450 2A13 (Homo sapiens, UniProt Q16696); binding, absorbance; pH 7.4): 15.4 µM
COc1cc2c(c(OC)c1OC)-c1ccc(OC)c(=O)cc1[C@@H](NC(C)=O)CC2  Vmax (ABCB1 (Homo sapiens, UniProt P08183); ATPase activity, substrate; membranes; added: ATP 1 mM): 4 ± 0.2 nmol Pi/min/mg protein
Cc1ncccc1NC(=O)c1ccc2c(c1)CC[C@@H]1C[C@@](O)(C(F)(F)F)CC[C@@]21Cc1ccccc1  Ki (CYP3A4/5, human; time-dependent inhibitor, item: 1'-hydroxymidazolam; pooled human liver microsomes; saturation not achieved, added: midazolam 23 µM): 3000 nM
CSc1nc2cc(Cl)c(Oc3cccc(Cl)c3Cl)cc2[nH]1  inhibition (CYP2C9; inhibitor; human liver microsomes; 10 µM, pH 7.4, added: diclofenac): 99.5%
Nc1ccncc1[18F]  parent fraction (Cytochrome P450 2E1 (Cyp2e1, Mus musculus, UniProt Q05421); mouse, awake, plasma; intravenous, 35 min, added: disulfiram 40 mg/kg intraperitoneal 2 h before): 50%
Clc1ccc(-c2cc(Cl)c(Cl)c(Cl)c2)cc1Cl  Ki (Aryl hydrocarbon receptor (AHR, Delphinapterus leucas, UniProt Q95LD9); binding, competitor; in vitro expressed receptor, added: [3H]TCDD): 1.6 nM
CC(=O)CC(c1ccccc1)c1c(O)c2cccc(O)c2oc1=O (stereo not shown)  Ki (CYP2C9; enzyme activity, inhibitor; human, liver microsomes): 13000 nM
Clc1ccc(Cl)c(-c2c(Cl)c(Cl)cc(Cl)c2Cl)c1  fold induction (NR1I2; reporter gene, agonist, luciferase; COS-7; 24 h; reference: DMSO): 7.1 ± 1 fold
O=C1Nc2ccc(Cl)cc2[C@@](C#CC2CC2)(C(F)(F)F)O1  PXR activation (NR1I2; reporter gene, activator; HepG2 transfected; 10 µM, 24 h; reference: DMSO): ~4.3 fold
Clc1ccc(-c2ccc(Cl)cc2Cl)c(Cl)c1  fold induction (NR1I2; reporter gene, agonist, luciferase; COS-7; 24 h; reference: DMSO): 2.6 ± 0.1 fold
C#CCOc1ccc2c(C(F)(F)F)cc(=O)oc2c1  KI (human CYP3A4; enzyme inactivation, inactivator; reconstituted system; added: testosterone 6β-hydroxylation substrate): 17 µM
Oc1cc(O)cc(/C=C/c2ccc(O)c(O)c2)c1  Km (UGT1A10 human; 4'-O-glucuronide formation, substrate; pH 7.4): 14.1 ± 5.7 µM
Clc1ccc(-c2c(Cl)c(Cl)c(Cl)c(Cl)c2Cl)cc1Cl  fold induction (PXR (polar bear); reporter gene, agonist, luciferase; COS-7; 24 h; reference: DMSO): 1.8 ± 0.3 fold
CCc1c2c(nc3ccc(O)cc13)-c1cc3c(c(=O)n1C2)COC(=O)[C@]3(O)CC  Km (UGT1A9 (Homo sapiens, UniProt O60656); substrate; pH 7.4, 37 °C): 26.4 µM
Clc1ccc(-c2ccc(Cl)c(Cl)c2Cl)cc1  fold induction (NR1I2; reporter gene, agonist, luciferase; COS-7; 24 h; reference: DMSO): 1 ± 0.2 fold
C#CCOCCc1cccc2ccccc12  Kd (Cytochrome P450 2A6 (CYP2A6, Homo sapiens, UniProt P11509); binding, absorbance; pH 7.4): 11.5 µM
